Results collected from several papers.
Numbers after ± are the reported error.

CCCNC(=O)[C@H]1O[C@@H]1C(=O)N[C@H](C(=O)N1CCC[C@H]1C(=O)OCC1=C2C(C)=CC(C)=[N+]2[B-](C)(C)n2c(C)cc(C)c21)[C@@H](C)CC has a phototoxicity index of 30 (MDA-MB-231; 72 h; reference: dark EC50 over light EC50).
O=C(C[Se]C(=O)c1cc2ccccc2o1)Nc1cccc(C(F)(F)F)c1 gave a CC50 of 11.3 µM (NCI60 breast subpanel; NCI60 five-dose screen).
With COc1ccccc1-c1ccncc1C(=O)Nc1nnc(OCc2ccc(Cl)cc2)s1 the colony survival was 98.2% (DLD-1 parental (BRCA2 WT); 4 µM, average of 3 runs; reference: untreated).
The IC50 of Cc1cc(Oc2nc(N3CC[C@@H](c4ccncc4)C3)ncc2F)[nH]n1 is reported as over 100 µM (T24; cell proliferation; bladder cancer).
For CC(C)(C)C(=O)OCOP(=O)(OCOC(=O)C(C)(C)C)C1CCCN(O)C1=O (stereo not shown), the log LC50 was over -4 log M (HOP-62).
For NC(=S)N/N=C/c1ccc(OCc2cccc(F)c2)cc1, “glutathione peroxidase activity (OD450)” read 0.245 a.u. (IMR-32; measured: GPX3; 300 µg/mL, 24 h; higher = more activity).
For CC(=O)NCSC[C@H](NC(=O)[C@@H]1CCCN1C(=O)[C@H](C)NC(=O)[C@@H](NC(=O)CNC(=O)[C@@H](NC(=O)[C@H](Cc1c[nH]c2ccccc12)NC(=O)[C@H](C)NC(=O)CNC(=O)[C@H](CO)NC(=O)[C@H](C)NC(=O)[C@@H]1CCCN1C(=O)[C@H](Cc1c[nH]c2ccccc12)NC(=O)[C@H](C)NC(=O)[C@H](C)NC(=O)[C@@H](N)Cc1ccc(O)cc1)[C@@H](C)O)[C@@H](C)O)C(=O)N[C@@H](CO)C(=O)N[C@@H](C)C(=O)NCC(=O)N[C@H](C(=O)NCCOCCOCCOCCOCCOCCOCCOCCOCCOCCOCCOCCOCCC(=O)N[C@@H](CS)C(N)=O)[C@@H](C)O, the selectivity ratio was 3.9 ± 1.8 (HCC2279 lung adenocarcinoma; cell binding, phage binding, measured: output/input phage; 10 min, 37 °C; reference: control phage).
O=C(C[Se]C(=O)c1ccco1)Nc1cccc(C(F)(F)F)c1 gave a mean TGI of 19.8 µM (NCI60 colon subpanel; NCI60 five-dose screen).
CSCC[C@H](N)C(=O)N[C@@H](C)C(=O)N[C@@H](Cc1c[nH]c2ccccc12)C(=O)N[C@@H](Cc1c[nH]cn1)C(=O)N[C@@H](CC(=O)O)C(=O)N[C@@H](CC(=O)O)C(=O)N[C@@H](CCC(=O)O)C(=O)N[C@@H](CCC(=O)O)C(=O)N[C@@H](Cc1ccccc1)C(=O)N[C@@H](C)C(=O)N[C@@H](CCCNC(=N)N)C(=O)N[C@@H](CCCNC(=N)N)C(=O)N[C@@H](CCCNC(=N)N)C(=O)N[C@@H](CCCNC(=N)N)C(=O)NCCCCCC(=O)NCCCCC(NC(=O)CCCCCNC(=O)[C@H](CCCNC(=N)N)NC(=O)[C@H](CCCNC(=N)N)NC(=O)[C@H](CCCNC(=N)N)NC(=O)[C@H](CCCNC(=N)N)NC(=O)[C@H](C)NC(=O)[C@H](Cc1ccccc1)NC(=O)[C@H](CCC(=O)O)NC(=O)[C@H](CCC(=O)O)NC(=O)[C@H](CC(=O)O)NC(=O)[C@H](CC(=O)O)NC(=O)[C@H](Cc1c[nH]cn1)NC(=O)[C@H](Cc1c[nH]c2ccccc12)NC(=O)[C@H](C)NC(=O)[C@@H](N)CCSC)C(=O)NCCCCC(NC(=O)C(CCCCNC(=O)CCCCCNC(=O)[C@H](CCCNC(=N)N)NC(=O)[C@H](CCCNC(=N)N)NC(=O)[C@H](CCCNC(=N)N)NC(=O)[C@H](CCCNC(=N)N)NC(=O)[C@H](C)NC(=O)[C@H](Cc1ccccc1)NC(=O)[C@H](CCC(=O)O)NC(=O)[C@H](CCC(=O)O)NC(=O)[C@H](CC(=O)O)NC(=O)[C@H](CC(=O)O)NC(=O)[C@H](Cc1c[nH]cn1)NC(=O)[C@H](Cc1c[nH]c2ccccc12)NC(=O)[C@H](C)NC(=O)[C@@H](N)CCSC)NC(=O)CCCCCNC(=O)[C@H](CCCNC(=N)N)NC(=O)[C@H](CCCNC(=N)N)NC(=O)[C@H](CCCNC(=N)N)NC(=O)[C@H](CCCNC(=N)N)NC(=O)[C@H](C)NC(=O)[C@H](Cc1ccccc1)NC(=O)[C@H](CCC(=O)O)NC(=O)[C@H](CCC(=O)O)NC(=O)[C@H](CC(=O)O)NC(=O)[C@H](CC(=O)O)NC(=O)[C@H](Cc1c[nH]cn1)NC(=O)[C@H](Cc1c[nH]c2ccccc12)NC(=O)[C@H](C)NC(=O)[C@@H](N)CCSC)C(N)=O (stereo partly shown) gave an osteoclast formation of 14% (mouse C57BL/6 BMMs; 3.0 µM, 3 days, added: RANKL; reference: untreated control).
The selectivity ratio of CSCC[C@H](NC(=O)[C@@H](NC(=O)[C@H](CCC(N)=O)NC(=O)[C@H](CO)NC(=O)[C@@H](N)C(C)C)[C@@H](C)O)C(=O)N[C@@H](CCCNC(=N)N)C(=O)N[C@@H](CCC(N)=O)C(=O)N[C@H](C(=O)N[C@@H](C)C(=O)N[C@H](C(=O)N1CCC[C@H]1C(=O)N[C@@H](CC(C)C)C(=O)N[C@@H](CC(C)C)C(=O)N[C@@H](Cc1c[nH]c2ccccc12)C(=O)N[C@@H](Cc1ccccc1)C(=O)N[C@@H](Cc1c[nH]c2ccccc12)C(=O)N[C@H](C(=O)NCC(=O)N[C@@H](CO)C(=O)N[C@@H](CC(C)C)C(=O)NCCOCCOCCOCCOCCOCCOCCOCCOCCOCCOCCOCCOCCC(=O)N[C@@H](CS)C(N)=O)[C@@H](C)O)C(C)C)[C@@H](C)O is reported as 1.8 ± 1.2 (H1437 lung adenocarcinoma; cell binding, phage binding, measured: output/input phage; 10 min, 37 °C; reference: control phage).

Excerpt of the above:
For CC(C)(C)C(=O)OCOP(=O)(OCOC(=O)C(C)(C)C)C1CCCN(O)C1=O (stereo not shown), the log LC50 was over -4 log M (HOP-62).
